Published values from different studies.
Protocols differ between the studies behind these lines. Numbers after ± are the reported error.
Target: 5-hydroxytryptamine receptor 2B (HTR2B, Homo sapiens, UniProt P41595)
UniProt P41595, sequence (whole entry, looked up): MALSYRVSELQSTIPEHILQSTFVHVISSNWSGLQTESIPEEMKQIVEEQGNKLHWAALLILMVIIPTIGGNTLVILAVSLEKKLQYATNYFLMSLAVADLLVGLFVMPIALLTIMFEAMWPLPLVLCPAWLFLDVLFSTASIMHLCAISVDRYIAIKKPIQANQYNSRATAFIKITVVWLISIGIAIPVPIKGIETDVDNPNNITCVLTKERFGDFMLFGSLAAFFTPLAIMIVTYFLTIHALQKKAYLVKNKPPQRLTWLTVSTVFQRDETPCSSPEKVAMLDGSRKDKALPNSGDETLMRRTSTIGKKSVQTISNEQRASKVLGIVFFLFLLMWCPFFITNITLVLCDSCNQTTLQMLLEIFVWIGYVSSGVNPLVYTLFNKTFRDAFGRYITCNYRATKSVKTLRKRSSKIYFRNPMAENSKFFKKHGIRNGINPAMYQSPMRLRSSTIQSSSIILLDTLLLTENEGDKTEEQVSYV

With `CNC(C)Cc1ccc2nonc2c1` (centres unmarked) the Emax was 49.4 ± 6.2% (agonist; reference: 5-HT).
For `Cn1cccc1-c1cccnc1`, the inhibition was 0.3% (binding; 50 µM).
With `O=C(Nc1cccnn1)N1CCN([C@@H]2CCOc3cc(C(F)(F)F)ccc32)CC1` the inhibition was 65% (binding; 20 µM).
`CNC(C)Cc1ccc2nsnc2c1` (centres unmarked) has an Emax of 69.4 ± 5.8% (agonist; reference: 5-HT).
`COc1cc(CC(C)N)c(OC)cc1I` (racemic) has a Hill coefficient of 0.9 (binding, agonist, radioligand binding).
The inhibition of `COc1cc(Cl)c(C(=O)N[C@@H](CN[C@H]2CC[C@@H](N)CC2)Cc2ccc(C#N)cc2)cc1-c1ccc(CN[C@H](C)c2ccc(C)cc2)o1` is reported as 28% (agonist response, antagonist; human cells; 10 µM, 5-HT2B antagonist).
`C/C=C1/CN2CC[C@]34C(=C(C(=O)OC)[C@H]1C[C@H]23)Nc1ccc(I)cc14` has an inhibition of less than 50% (10 µM).
With `O=c1ccc2ccccc2o1` the inhibition was -6.21% (agonist radioligand binding; 10 µM, SafetyScreen44).
`COc1cc(CCNC(C)c2ccccc2O)c(OC)cc1Br.Cl` (centres unmarked) gave an efficacy of less than 50% (Gq dissociation, agonist, BRET; 10 µM; reference: 5-HT response).
With `CCN(CC)CCCC[C@H](NC(=O)[C@H](CC(C)C)NC(=O)[C@H](C)NC(=O)[C@H](Cc1ccccc1)NC(=O)c1ccc(C(C)(C)C)cc1)C(=O)N[C@@H](CO)C(=O)OC` the specific binding was 93% (radioligand binding; 10 µM).
With `N#C[C@@]12C[C@@H]1[C@@H](n1cnc3c(NC4CCCC4)nc(I)nc31)[C@H](O)[C@@H]2O` the affinity gain was 6.6 fold (radioligand binding; added: [3H]LSD; reference: 4′-cyano over 4′-CH2OH analogue).
For `CN1CCN(c2cc(-c3ccncc3)c(-c3ccc4ccccc4c3)nn2)CC1`, the inhibition was 21.3% (antagonist, FLIPR; 10 µM).
`Cl.NC[C@H]1C[C@]1(F)c1ccccc1Br`: activity “inactive” (concentration not given).
With `COc1cc(CCNC(C)c2ccccc2O)c(OC)cc1C#N` (single isomer, unassigned; (+)) the Emax was 41% (Gq dissociation, agonist, BRET; reference: 5-HT).
